Assay results gathered from unrelated publications.
Each numbered part is a random draw from the data of one study; scales do not carry over between parts. Positions count from the first letter of the parent shown.

Study 1
Target: ABI1, truncated, D143A, DHFR fusion (Arabidopsis thaliana)
Method: DHFR PCA, deep sequencing
Sample: yeast
Notes: methotrexate growth selection, single substitutions
Together with: (+)-ABA 0.39 µM
Relative to: wild-type fitted maximum
Direction: higher = stronger binding
Parent: PYL1, truncated, DHFR fusion (Arabidopsis thaliana); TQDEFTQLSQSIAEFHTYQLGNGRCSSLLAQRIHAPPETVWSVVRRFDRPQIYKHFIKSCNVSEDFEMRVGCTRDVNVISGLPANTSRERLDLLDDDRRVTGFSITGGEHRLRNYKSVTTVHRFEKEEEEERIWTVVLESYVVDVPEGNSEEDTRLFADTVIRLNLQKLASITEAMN; partner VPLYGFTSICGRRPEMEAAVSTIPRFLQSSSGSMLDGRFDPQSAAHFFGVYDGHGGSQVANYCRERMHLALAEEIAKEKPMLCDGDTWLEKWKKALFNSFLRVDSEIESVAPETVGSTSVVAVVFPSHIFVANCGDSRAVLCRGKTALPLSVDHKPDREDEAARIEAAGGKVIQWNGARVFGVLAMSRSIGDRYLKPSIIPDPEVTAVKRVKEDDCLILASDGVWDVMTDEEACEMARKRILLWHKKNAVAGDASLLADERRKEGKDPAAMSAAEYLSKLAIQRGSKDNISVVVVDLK
| Change | relative binding score [%] |
| --- | --- |
| E64R | 37 |
| L169M | -3.71 |
| Y53G | -3.98 |
| E131P | 74.3 |
| S104H | -12.9 |
| S9L | 34.8 |
| E89G | 2.69 |
| N85Y | 67 |
| D159S | -6.81 |
| V100D | -15.7 |
| P37R | 1.55 |
| R32D | 3.37 |
| T101W | -17.4 |
| V142L | -16 |
| Q31K | 27.2 |

Study 2
Target: Histone acetyltransferase KAT6A, winged helix 2, GST fusion (KAT6A, Homo sapiens, UniProt Q92794, residues 85-181)
Method: protein binding microarray
Form: double-stranded DNA, one strand shown
Sample: in vitro
Tested at: not given
Notes: 8-mer, flanks averaged, mean of 2 arrays, mostly near background
Relative to: not given
Direction: higher = stronger binding
Residues (chain): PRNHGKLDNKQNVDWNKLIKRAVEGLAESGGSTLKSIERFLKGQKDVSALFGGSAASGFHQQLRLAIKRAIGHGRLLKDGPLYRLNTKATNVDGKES
| Oligonucleotide | E-score |
| --- | --- |
| ACGCACGA | 0.173 |
| AGAAACCG | -0.0887 |
| GCTCTGTA | 0.00163 |
| GCTCAGTA | 0.0742 |
| CAGTACAC | 0.0182 |
| CCGGAAGC | 0.23 |
| CTAATGAA | 0.226 |
| ATTCCATA | 0.00466 |
| AAAACGCT | -0.133 |
| CTAGAAGC | 0.0135 |
| ACACCTTC | 0.091 |
| AGCCTTAT | -0.278 |
| ACCCACGT | -0.101 |
| ATCAGGTC | -0.104 |
| CTGATCTA | -0.0442 |
| GATTTGGA | -0.12 |
| ATATTTTC | 0.0664 |
| CTCCAGCC | 0.0767 |
| GGTAGCAA | 0.0324 |
| CCGGGTAG | 0.0447 |
| AGATCAGA | -0.086 |

Study 3
Target: CCND1, cyclin fold, Cln2 fusion (human)
Method: yeast growth competition, sequencing
Sample: yeast
Notes: strong parent motif
Relative to: not given
Direction: higher = stronger binding
Parent: PKN2 docking peptide (human); VSAVRKLDFSDTM
| Change | normalised enrichment score |
| --- | --- |
| VSAVRKQDFSDTM [L7Q] | 0.124 |
| VTAVRKLDFSDTM [S2T] | 5.31 |
| VSAVRKLLFSDTM [D8L] | 0.672 |
| VSAMRKLDFSDTM [V4M] | 4.66 |
| VSAVRKLDCSDTM [F9C] | 0.054 |
| VSAVRKLDFDDTM [S10D] | 5.17 |
| VSAVRKLDFSYTM [D11Y] | 4.49 |
| VSAPRKLDFSDTM [V4P] | 0.543 |
| VKAVRKLDFSDTM [S2K] | 4.83 |
| VSARRKLDFSDTM [V4R] | 5.21 |
| VSADRKLDFSDTM [V4D] | 0.248 |
| VSAVRKLKFSDTM [D8K] | 2.04 |
| VSAVRKLEFSDTM [D8E] | 4.09 |

Further values, each from its own experiment
| Molecule | target | test | test system | conditions | scale | measurement | result |
| --- | --- | --- | --- | --- | --- | --- | --- |
| PhoQ, residues 284 288 289 292 302 303 SLGVVW | PhoP, residues 12 14 15 18 19 NQFFI (Escherichia coli, UniProt P23836) | Sort-seq, measured: YFP reporter | E. coli | PhoQ-PhoP variant library, together with: 10 µM Mg2+ | relative to: high Mg2+ state, higher = stronger signaling | fold induction | 22.3 |
